Experimental data pooled from the literature.
Numbered parts are unrelated; each lists some results of a single study. Substitutions count along the parent as printed.

Series 1 — method: protein-binding microarray; molecule type: double-stranded DNA, one strand shown; sample: in vitro; concentration: 2200 nM top; setting: 60-bp whole probe; added: salmon DNA 0.4 mg/ml; baseline: random background probes; direction: higher = stronger binding; shared flanks, not repeated: GCCTAGCAC … GTCTTGATTCGCTTGACGCTGCTG
Target: Interferon regulatory factor 7, full length, phosphomimetic (IRF7, Homo sapiens, UniProt Q92985, residues 1-503, S471D/S472D/S475D/S476D/S477D/S483D/S484D/S487D)
Target sequence (chain): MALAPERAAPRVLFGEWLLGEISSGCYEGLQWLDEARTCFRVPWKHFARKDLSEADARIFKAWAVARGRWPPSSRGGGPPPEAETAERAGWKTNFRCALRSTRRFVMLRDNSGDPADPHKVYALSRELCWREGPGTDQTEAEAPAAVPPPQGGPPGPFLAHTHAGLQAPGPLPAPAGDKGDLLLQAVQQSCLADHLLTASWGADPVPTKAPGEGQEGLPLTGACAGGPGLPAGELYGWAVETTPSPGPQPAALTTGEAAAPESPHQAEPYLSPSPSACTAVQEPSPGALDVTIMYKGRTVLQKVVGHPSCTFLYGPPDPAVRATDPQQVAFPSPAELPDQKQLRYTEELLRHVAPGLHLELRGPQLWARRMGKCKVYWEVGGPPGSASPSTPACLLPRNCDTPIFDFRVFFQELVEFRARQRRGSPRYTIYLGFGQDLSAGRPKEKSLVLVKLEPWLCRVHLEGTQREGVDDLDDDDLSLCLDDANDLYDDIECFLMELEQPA
For `TCAGTTTTAGGTCCCTTACTGTGCTAG`, “fitted relative affinity” read 1.68 z-score.
`GACGGTATAGGGTTTCGGGACGTGCTA`: “fitted relative affinity” 0.706 z-score.
For `GACGGACTGGGGACTGGGGACGTGCTA`, “fitted relative affinity” read -0.822 z-score.
`TCATTTTTGCTTTCTTTACTGTGCTAG`: “fitted relative affinity” 4.98 z-score.
Under “fitted relative affinity”, `CAGGGTTTCAGATGCGTGAGGTGCTAG` is recorded as 0.141 z-score.
`TTGGTTTTCTCTATTGCTTTGTGCTAG`: “fitted relative affinity” 2.18 z-score.
`CTGCTAGGGCACACAAGTCAGTGCTAG`: “fitted relative affinity” -0.908 z-score.
For `TTAGGACTGGACTAACGGTTAGTGCTA`, “fitted relative affinity” read -0.811 z-score.
Under “fitted relative affinity”, `GACGGACTGGGTCTCAGGACGTGCTAG` is recorded as -0.926 z-score.

Series 2 — target: CCNB3, cyclin fold, Cln2 fusion (human); method: yeast growth competition, sequencing; sample: yeast; setting: strong parent motif; baseline: not given; direction: higher = stronger binding
Starting sequence: RBL2 docking peptide (human); STTRRRLFVENDS; partner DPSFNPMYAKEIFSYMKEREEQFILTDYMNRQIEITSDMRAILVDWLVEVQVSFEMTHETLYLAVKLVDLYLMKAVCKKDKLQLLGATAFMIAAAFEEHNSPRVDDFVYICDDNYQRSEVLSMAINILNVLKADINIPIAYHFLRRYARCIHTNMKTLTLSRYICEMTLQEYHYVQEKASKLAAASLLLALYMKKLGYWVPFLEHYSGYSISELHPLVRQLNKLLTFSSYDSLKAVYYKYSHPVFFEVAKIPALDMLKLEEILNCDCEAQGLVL
For `STTRRRHFVENDS [L7H]`, “normalised enrichment score” read 0.0131.
Under “normalised enrichment score”, `STTRRRLFVENSS [D12S]` is recorded as 0.515.
Under “normalised enrichment score”, `STTMRRLFVENDS [R4M]` is recorded as -0.355.
`STTRRRLFVENDH [S13H]` — result for “normalised enrichment score”: 1.04.
Under “normalised enrichment score”, `STTCRRLFVENDS [R4C]` is recorded as 0.595.
`STTRRRLTVENDS [F8T]` — result for “normalised enrichment score”: 0.125.
Under “normalised enrichment score”, `STTRRRLFVEPDS [N11P]` is recorded as 1.01.
For `STTRRRLFVENDC [S13C]`, “normalised enrichment score” read 0.842.
`STTRDRLFVENDS [R5D]` — result for “normalised enrichment score”: -0.208.

Series 3 — method: RNA Bind-n-Seq; molecule type: RNA; sample: in vitro; concentration: not given; baseline: input RNA pool; direction: higher = stronger binding
Target: RING finger protein unkempt homolog, zinc fingers 1-6, GST-SBP tag (UNK, Homo sapiens, UniProt Q9C0B0, residues 30-357)
Setting: RNA with constant flanks, human-mouse chimeric sites, ends assumed
Shared flanks, not repeated: GGGAGUUCUACAGUCCGACGAUC … CAACAGAGGAUUGAGCAUCA
Target sequence (chain): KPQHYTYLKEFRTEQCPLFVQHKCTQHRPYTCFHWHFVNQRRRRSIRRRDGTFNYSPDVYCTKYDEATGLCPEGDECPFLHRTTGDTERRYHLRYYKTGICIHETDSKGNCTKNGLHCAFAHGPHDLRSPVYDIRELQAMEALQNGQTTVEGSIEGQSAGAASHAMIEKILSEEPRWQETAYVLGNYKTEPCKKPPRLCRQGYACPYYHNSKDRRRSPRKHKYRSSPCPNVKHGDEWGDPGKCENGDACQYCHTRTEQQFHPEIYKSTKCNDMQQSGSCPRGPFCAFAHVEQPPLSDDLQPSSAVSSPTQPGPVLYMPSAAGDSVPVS
`CUAGCAGUCCAGCAGCUAGAAGGAGCCUUGAGACAAACACUCCACACACAGGGAAGGCAAUAGCUUUGUACAUUGGUUUACAUUUUUUCCCCCUGUGGAUUUUUCUAGAGGUCAUAGUGC` has a bound/input enrichment of 1.12 ratio.
The bound/input enrichment of `GAAACUAUUCCUAAAGAGGAGAGAGCUGAAAAGGAAGCUCGGAGACCAUCUCUUGAGAAACAUAGAAAAGAAAAGCCUUUUAAAACCGGGAGAGGCAGAAUUUCCACUCCUGAAAGAAAA` is reported as 0.379 ratio.
The bound/input enrichment of `UAAGUCCUGUGCCAGCAAUUUAUCCCAAAAGUUUUAAAUUCUGGACCAAUAGUGUUUGUUUCCUGAUUAUUGUAUCCAAUACUUUGCCUAGUAUGUAACUCACUCUUCUGGAUAAAUAAA` is reported as 4.83 ratio.
`AAAGCCCAAGUAUUUUGAAAAAACUCGAACAGAUUUGUCAAGGGUAACCAGCUUGGAGUCUAGCAACUUGCCAAUGUUGCUUACCAACUGGGGGCUUGUUUUUCUUUUCUUCUUUCAAAU` gave a bound/input enrichment of 0.148 ratio.
`UGACAAGGGCACUGCAGAGCCAUGCCUUUCCUUGACAUCCAGAAAAGGCUGGGCAUCAGCCUGGACCGGCACUUUAUGUUCCUAAGCGCAGAACAGCCCUAUAAGAACGCCGCUCGGUGC` gave a bound/input enrichment of 0.0517 ratio.

Single results of other studies
`PhoQ, residues 284 288 289 292 302 303 SSTMSV` has a fold induction of 21.2 (PhoP, residues 12 14 15 18 19 SFCSL (Escherichia coli, UniProt P23836); Sort-seq, measured: YFP reporter; E. coli; PhoQ-PhoP variant library, added: 10 µM Mg2+; baseline: high Mg2+ state, higher = stronger signaling).

Some of these lines once more (series 2):
Under “normalised enrichment score”, `STTRRRLFVEPDS [N11P]` is recorded as 1.01.
For `STTRRRLFVENDC [S13C]`, “normalised enrichment score” read 0.842.
`STTRDRLFVENDS [R5D]` — result for “normalised enrichment score”: -0.208.
